Published values from different studies.
Each numbered part is a random draw from the data of one study; scales do not carry over between parts. Positions count from the first letter of the parent shown.

Sample 1 — technique: RNA Bind-n-Seq; form: RNA; medium: in vitro; concentration: 20 nM; setting: 6-mer, flanks averaged, single round; with: 150 mM LiCl; baseline: input library; direction: higher = stronger binding
Target: TAR DNA-binding protein 43, full length, His tag (TARDBP, Homo sapiens, UniProt Q13148, residues 1-414)
For `CAAGAA`, “6-mer enrichment (R)” read 0.885.
For `UGGGCU`, “6-mer enrichment (R)” read 1.04.
Under “6-mer enrichment (R)”, `UGCAAA` is recorded as 0.864.
Under “6-mer enrichment (R)”, `UGACGU` is recorded as 0.946.
For `UUCAUA`, “6-mer enrichment (R)” read 0.895.
`CCCCCG`: “6-mer enrichment (R)” 1.27.
Under “6-mer enrichment (R)”, `AAGGGA` is recorded as 0.992.

Sample 2 — technique: protein-binding microarray; form: double-stranded DNA, one strand shown; medium: in vitro; concentration: 250 nM; setting: 60-bp whole probe; with: salmon DNA 0.4 mg/ml; baseline: random background probes; direction: higher = stronger binding; shared flanks, not repeated: GCCTAGCAC … GTCTTGATTCGCTTGACGCTGCTG
Target: Interferon regulatory factor 5, full length, phosphomimetic (IRF5, Homo sapiens, UniProt Q13568-2, residues 1-514, K96S/S451D/S453D/S456D/S462D)
`TTAAATATCAGTTTCGATTAGTGCTAG` gave a log fluorescence of 10.2 z-score.
`TTAGGTCTCCCTATCCTTTAGTGCTAG` has a log fluorescence of -0.0308 z-score.
For `AGGAATCTTGAGTTAGAGACGTGCTAG`, the log fluorescence was -0.437 z-score.
For `TGAGGTCTCGGTCTCGGTTAGTGCTAG`, the log fluorescence was 0.418 z-score.
With `TCAGCTCTCTGGACTGTGACTGTGCTA` the log fluorescence was -0.015 z-score.

Mixed results
P1: SLBP docking peptide (human); ARYKRKLLINDFG; partner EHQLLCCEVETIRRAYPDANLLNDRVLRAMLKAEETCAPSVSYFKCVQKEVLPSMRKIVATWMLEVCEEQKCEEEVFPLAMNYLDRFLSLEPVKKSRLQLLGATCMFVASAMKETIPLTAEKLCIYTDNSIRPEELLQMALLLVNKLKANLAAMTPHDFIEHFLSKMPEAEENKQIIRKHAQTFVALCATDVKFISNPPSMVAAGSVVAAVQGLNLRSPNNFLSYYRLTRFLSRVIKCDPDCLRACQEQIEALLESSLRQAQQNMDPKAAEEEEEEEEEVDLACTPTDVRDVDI
P2: SLBP docking peptide (human); ARYKRKLLINDFG; partner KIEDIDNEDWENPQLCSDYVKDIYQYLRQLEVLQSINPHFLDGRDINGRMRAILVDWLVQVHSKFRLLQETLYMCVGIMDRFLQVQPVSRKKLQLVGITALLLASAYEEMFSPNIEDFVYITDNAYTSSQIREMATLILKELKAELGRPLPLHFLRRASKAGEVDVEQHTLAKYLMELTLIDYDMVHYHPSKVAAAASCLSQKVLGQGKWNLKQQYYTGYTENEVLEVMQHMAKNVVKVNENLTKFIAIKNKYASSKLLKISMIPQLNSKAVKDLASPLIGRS
P3: E2F1 docking peptide (human); PPVKRRLDFETDH; partner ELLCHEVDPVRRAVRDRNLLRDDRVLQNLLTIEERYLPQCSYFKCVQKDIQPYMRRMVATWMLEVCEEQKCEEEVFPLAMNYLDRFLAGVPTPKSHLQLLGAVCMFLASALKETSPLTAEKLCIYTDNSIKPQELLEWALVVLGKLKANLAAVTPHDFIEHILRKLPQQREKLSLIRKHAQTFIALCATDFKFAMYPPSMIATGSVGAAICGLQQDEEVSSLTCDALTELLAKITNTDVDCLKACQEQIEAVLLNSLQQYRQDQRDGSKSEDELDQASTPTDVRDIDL
P4: BRCA2 docking peptide (human); PSIKRNLLNEFDR; partner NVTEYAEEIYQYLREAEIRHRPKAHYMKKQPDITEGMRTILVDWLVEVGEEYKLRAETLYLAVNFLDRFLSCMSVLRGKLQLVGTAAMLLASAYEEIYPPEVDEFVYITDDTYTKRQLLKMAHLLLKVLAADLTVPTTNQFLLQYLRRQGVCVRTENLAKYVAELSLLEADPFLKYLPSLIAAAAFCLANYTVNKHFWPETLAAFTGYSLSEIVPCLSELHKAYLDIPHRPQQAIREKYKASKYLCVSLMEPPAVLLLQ
`P1 R2V` — result for “normalised enrichment score”: -0.138 (CCND1, cyclin fold, Cln2 fusion (human); yeast growth competition, sequencing; yeast; weak parent motif; baseline: not given, higher = stronger binding).
`PhoQ, residues 284 288 289 292 302 303 SASVAL` has a fold induction of 0.445 (PhoP, residues 12 14 15 18 19 TTLRV (Escherichia coli, UniProt P23836); Sort-seq, item: YFP reporter; E. coli; PhoQ-PhoP variant library, with: 10 µM Mg2+; baseline: high Mg2+ state, higher = stronger signaling).
`P2 L7Q`: “normalised enrichment score” 0.52 (CCNB2, cyclin fold, Cln2 fusion (human); yeast growth competition, sequencing; yeast; weak parent motif; baseline: not given, higher = stronger binding).
`P3 E10L`: “normalised enrichment score” 1.16 (CCND2, cyclin fold, Cln2 fusion (human); yeast growth competition, sequencing; yeast; strong parent motif; baseline: not given, higher = stronger binding).
Under “normalised enrichment score”, `P4 I3V` is recorded as 0.521 (CCNA1, cyclin fold, Cln2 fusion (human); yeast growth competition, sequencing; yeast; weak parent motif; baseline: not given, higher = stronger binding).

For quick reference, copied from above (sample 1):
Under “6-mer enrichment (R)”, `UGACGU` is recorded as 0.946.
For `UUCAUA`, “6-mer enrichment (R)” read 0.895.
`CCCCCG`: “6-mer enrichment (R)” 1.27.
